# Results of several laboratories.
# Every numbered part comes from another study and shows a few of its results, in no order. Positions count from the first letter of the parent shown.

# Set 1
# Target: CCNE2, cyclin fold, Cln2 fusion (human)
# Method: yeast growth competition, sequencing
# Medium: yeast
# Notes: weak parent motif
# Baseline: not given
# Reading: higher = stronger binding
# Starting sequence: RB1 docking peptide (human); PKPLKKLRFDIEG; partner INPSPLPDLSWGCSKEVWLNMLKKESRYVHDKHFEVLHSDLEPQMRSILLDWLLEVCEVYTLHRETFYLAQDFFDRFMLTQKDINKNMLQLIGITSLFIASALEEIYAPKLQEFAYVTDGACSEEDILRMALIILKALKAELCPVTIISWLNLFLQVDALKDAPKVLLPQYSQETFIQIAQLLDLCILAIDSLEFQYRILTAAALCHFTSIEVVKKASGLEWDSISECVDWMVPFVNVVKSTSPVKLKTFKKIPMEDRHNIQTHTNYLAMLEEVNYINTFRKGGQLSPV
Substitution,normalised enrichment score
PKPLKKLRGDIEG [F9G],0.717
PKPLKKLRFDYEG [I11Y],-0.187
PKTLKKLRFDIEG [P3T],-0.44
PKPLKKLRHDIEG [F9H],0.332
PKPLKKLRFDIEE [G13E],1.16
PKPLKKLRFWIEG [D10W],0.812
PKPLKKLRFDHEG [I11H],0.726
PKPLKKLRFTIEG [D10T],0.49

# Set 2
# Target: Fragile X messenger ribonucleoprotein 1, C-terminal low-complexity region (Fmr1, Mus musculus, UniProt P35922)
# Method: RNA Bind-n-Seq
# Molecule type: RNA
# Medium: in vitro
# Tested at: 200 nM
# Notes: whole 134-nt RNA, ends assumed
# With: 150 mM LiCl
# Baseline: input library
# Reading: higher = stronger binding
# Library: 7-deaza-guanosine replaces G
Sequence,log2 enrichment
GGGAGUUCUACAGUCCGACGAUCCCUGUGCUACACAUCGUAUGUACCGAAUCGGGAAAAAAAGGGAAAAAAAGGGAAAAAGGGAAAGUAUUAUGUUACGCCGUUCGGAUCUGCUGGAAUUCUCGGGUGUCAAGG,-0.928
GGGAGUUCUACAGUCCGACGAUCUAACUUUAGAGGAGGAUCUGAUGGAUAUGGCAGUGGACGUAGAUUUGGGGAUGGCUAUAAUGGGUAUGGAGGAGGACCUGGAGGUGGCAAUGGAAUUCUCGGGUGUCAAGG,0.447
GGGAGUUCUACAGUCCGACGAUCUCAAGUCCUGUGCUACACAUCGUAUGUACCGAAUCGGAAAAAGGAAAAAGGAGGAAAGUAUUAUGUUACGCCGUUCGGAUCUGCACUUCCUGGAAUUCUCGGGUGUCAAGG,-0.661
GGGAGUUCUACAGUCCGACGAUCCUCAGACAACACGCACCCACACAGACACAGAGGGAAGGGGUUGGGAUGGGGACAGGGUGCACAGCAGGGCGGGGUAGGACCCCAGCCCCUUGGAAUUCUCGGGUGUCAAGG,-1.2
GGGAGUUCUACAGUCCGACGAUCUAACUUUAGAGGAGGAUCUGAUGGAUAUAGCAGUGGACGUGGAUUUGGGGAUGGCUAUAAUGGGUAUGGAGGAGGACCUGGAGGUGGCAAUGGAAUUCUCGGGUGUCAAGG,0.48
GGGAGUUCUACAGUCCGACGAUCUGGCCCUGGUGGCAAGCGGGGAGGAAGAGGUGGCCUCAUGGAUCGUGGUGGUCCCGGUGGAAUGUUCAGAGGUGGCCGUGGUGGAGACAGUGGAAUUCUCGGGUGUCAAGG,0.413
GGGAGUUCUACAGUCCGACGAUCAGUCCUGUGCUACACAUCGUAUGUACCGAAUCGGGGAGGGGUGGGGUUUUUUUGGGGAAAGUAUUAUGUUACGCCGUUCGGAUCUGCACUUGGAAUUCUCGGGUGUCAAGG,-0.556

# Set 3
# Target: Sal-like protein 4, full length isoform B (SALL4, Homo sapiens, UniProt Q9UJQ4-2, residues 1-616)
# Method: universal PBM
# Molecule type: double-stranded DNA, one strand shown
# Medium: in vitro
# Tested at: not given
# Notes: 8-mer, flanks averaged, mean of replicates
# Reading: higher = stronger binding
# Residues (chain): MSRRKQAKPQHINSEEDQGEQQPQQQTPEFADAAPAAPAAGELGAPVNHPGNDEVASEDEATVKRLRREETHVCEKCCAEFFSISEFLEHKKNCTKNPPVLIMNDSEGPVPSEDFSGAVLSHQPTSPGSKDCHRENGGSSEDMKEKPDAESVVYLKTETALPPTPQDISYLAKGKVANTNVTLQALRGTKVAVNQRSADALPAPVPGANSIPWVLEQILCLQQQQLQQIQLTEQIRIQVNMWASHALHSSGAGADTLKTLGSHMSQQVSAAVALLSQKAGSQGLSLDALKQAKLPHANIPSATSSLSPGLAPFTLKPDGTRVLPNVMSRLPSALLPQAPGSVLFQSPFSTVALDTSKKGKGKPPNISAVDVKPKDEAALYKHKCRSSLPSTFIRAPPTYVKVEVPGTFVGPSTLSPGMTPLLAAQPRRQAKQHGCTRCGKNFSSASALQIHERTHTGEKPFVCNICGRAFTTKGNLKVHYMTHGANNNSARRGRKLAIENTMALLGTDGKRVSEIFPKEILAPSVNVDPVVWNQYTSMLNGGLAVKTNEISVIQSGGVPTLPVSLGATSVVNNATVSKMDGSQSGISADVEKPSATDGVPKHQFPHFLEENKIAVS
Sequence,E-score
AGTCCGCA,-0.191
ACCCACGT,-0.114
ATTGATTC,0.187
CGTCATGC,-0.0938
AAGCACCA,-0.148
AGAAAAAC,0.119
GATAAGTA,0.221
AAGTTGTC,0.0571
GACTCAAA,-0.0767
GCGAGGGA,-0.114
CCCTCAAG,-0.0223
AGATCCTA,0.00547

# Mixed results
Molecule,target,assay,system,setting,how to read,endpoint,value
"PhoQ, residues 284 288 289 292 302 303 NLMGRA","PhoP, residues 12 14 15 18 19 YHFSH (Escherichia coli, UniProt P23836)","Sort-seq, refers to: YFP reporter",E. coli,"PhoQ-PhoP variant library, with: 10 µM Mg2+","baseline: high Mg2+ state, higher = stronger signaling",fold induction,3.09

# Some of these lines once more (set 1):
Substitution,normalised enrichment score
PKTLKKLRFDIEG [P3T],-0.44
PKPLKKLRFDIEE [G13E],1.16
PKPLKKLRFTIEG [D10T],0.49
PKPLKKLRFDYEG [I11Y],-0.187
